Experimental data collected from several papers.
Compare with care: the assays were run in different laboratories. Numbers after ± are the reported error. Positions of bridges follow the written chain, without caps; N, C: chain ends. No end group written: not given here.
UniProt O00482, sequence (whole entry, looked up): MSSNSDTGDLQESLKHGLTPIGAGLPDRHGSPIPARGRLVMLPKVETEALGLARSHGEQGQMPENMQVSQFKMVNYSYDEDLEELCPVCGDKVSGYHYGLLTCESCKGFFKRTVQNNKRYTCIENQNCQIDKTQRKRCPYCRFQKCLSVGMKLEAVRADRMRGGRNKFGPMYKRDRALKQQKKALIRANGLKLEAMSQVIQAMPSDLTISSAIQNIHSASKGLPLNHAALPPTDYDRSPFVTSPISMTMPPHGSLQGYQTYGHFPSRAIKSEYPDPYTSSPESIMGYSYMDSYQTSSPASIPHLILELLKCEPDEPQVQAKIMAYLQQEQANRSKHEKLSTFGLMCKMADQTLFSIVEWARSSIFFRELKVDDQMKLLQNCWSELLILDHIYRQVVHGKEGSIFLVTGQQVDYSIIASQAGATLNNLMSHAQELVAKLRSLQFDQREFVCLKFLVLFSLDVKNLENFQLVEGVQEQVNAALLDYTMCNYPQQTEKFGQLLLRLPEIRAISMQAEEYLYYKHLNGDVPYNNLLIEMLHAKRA
UniProt Q13133, sequence (whole entry, looked up): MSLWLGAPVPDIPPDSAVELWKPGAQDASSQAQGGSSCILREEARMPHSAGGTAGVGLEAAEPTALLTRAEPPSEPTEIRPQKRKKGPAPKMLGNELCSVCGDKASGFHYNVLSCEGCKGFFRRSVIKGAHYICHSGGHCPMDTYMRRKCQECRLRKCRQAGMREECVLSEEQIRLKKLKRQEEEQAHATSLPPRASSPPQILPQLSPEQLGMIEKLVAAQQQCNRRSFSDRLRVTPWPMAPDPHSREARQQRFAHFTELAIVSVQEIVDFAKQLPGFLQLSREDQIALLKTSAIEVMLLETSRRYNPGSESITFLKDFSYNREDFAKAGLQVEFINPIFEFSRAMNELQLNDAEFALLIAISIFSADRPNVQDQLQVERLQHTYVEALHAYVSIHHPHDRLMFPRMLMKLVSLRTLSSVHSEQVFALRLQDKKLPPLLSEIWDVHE
UniProt O96013, sequence (whole entry, looked up): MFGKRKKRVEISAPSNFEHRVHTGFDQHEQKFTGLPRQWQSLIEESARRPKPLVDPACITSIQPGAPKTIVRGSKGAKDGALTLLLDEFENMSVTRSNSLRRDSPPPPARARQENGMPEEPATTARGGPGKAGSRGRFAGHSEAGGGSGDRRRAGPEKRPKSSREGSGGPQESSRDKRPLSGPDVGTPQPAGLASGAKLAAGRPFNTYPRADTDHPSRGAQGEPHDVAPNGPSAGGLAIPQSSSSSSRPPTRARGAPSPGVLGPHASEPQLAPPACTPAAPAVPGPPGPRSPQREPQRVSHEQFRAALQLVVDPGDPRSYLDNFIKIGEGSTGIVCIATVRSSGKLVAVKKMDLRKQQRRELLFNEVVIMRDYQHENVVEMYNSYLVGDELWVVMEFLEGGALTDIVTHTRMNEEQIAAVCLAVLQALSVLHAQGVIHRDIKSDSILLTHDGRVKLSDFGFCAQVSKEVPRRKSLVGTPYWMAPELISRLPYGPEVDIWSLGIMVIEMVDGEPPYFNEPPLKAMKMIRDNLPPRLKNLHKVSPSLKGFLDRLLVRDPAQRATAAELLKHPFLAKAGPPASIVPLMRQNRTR
UniProt Q14994, sequence (whole entry, looked up): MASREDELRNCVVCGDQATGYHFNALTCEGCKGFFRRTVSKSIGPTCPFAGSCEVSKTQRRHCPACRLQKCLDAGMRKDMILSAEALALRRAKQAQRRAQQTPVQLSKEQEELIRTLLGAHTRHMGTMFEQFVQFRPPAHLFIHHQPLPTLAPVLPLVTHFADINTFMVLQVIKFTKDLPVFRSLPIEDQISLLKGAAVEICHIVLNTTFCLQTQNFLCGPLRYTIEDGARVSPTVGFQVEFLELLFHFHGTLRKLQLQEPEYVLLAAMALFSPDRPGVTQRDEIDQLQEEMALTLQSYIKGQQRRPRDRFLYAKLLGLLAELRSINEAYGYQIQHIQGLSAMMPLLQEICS
UniProt P22629, sequence (whole entry, unmodified, looked up): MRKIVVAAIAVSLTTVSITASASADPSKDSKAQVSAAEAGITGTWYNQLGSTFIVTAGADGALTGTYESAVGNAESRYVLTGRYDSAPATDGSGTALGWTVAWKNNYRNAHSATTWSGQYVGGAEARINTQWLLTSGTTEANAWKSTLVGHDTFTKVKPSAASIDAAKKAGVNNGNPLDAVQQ
UniProt Q99ZW2, sequence (whole entry, looked up): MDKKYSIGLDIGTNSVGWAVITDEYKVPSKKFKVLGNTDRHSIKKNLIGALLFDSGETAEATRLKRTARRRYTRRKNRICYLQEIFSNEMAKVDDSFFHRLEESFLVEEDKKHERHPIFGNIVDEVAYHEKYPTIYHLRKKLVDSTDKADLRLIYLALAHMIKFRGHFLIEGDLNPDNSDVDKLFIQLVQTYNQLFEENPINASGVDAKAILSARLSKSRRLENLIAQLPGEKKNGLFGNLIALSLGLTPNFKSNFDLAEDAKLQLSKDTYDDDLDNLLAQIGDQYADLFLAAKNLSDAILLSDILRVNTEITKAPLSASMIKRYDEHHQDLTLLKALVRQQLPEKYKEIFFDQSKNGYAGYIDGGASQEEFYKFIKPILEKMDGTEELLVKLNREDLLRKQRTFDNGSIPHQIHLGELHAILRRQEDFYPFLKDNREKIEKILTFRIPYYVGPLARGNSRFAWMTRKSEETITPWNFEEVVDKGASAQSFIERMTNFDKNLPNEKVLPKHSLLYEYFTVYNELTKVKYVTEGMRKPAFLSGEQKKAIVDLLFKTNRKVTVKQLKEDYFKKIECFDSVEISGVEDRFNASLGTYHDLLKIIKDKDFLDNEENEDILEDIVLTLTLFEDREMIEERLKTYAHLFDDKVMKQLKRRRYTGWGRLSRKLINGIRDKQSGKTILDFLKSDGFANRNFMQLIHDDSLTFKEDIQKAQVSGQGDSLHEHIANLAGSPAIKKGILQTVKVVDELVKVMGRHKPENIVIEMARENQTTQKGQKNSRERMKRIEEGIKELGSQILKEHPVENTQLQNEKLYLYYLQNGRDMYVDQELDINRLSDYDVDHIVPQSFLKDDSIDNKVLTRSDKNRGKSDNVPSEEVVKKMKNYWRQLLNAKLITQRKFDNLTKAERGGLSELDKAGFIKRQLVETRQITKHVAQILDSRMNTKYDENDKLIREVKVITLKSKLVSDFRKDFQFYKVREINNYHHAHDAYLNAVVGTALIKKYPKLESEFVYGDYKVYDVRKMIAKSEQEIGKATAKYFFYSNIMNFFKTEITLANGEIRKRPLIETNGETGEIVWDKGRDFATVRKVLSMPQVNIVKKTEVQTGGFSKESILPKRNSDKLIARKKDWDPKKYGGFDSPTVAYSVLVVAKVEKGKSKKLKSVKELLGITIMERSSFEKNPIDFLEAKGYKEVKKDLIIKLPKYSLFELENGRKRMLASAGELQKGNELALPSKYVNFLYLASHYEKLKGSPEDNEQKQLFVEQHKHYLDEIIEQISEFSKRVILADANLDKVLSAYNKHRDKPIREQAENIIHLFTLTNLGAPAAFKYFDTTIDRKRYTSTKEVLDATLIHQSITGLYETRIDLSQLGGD

| Substance | target or system | test | system | setting | how to read | quantity | result |
| --- | --- | --- | --- | --- | --- | --- | --- |
| ACIMVHYDRVECSG (disulfide 2-12 (inferred)) (disulfide) | Streptavidin (Streptomyces avidinii, UniProt P22629, E68V/S69T/V71R) | binding, yeast surface display |  | 1 h, 4 °C, added: Strep-Tactin |  | Kd | 0.0008 ± 0.0002 µM |
| aspterric acid |  |  | Arabidopsis thaliana Col-0 seeds | 6.25 µg/mL, seed germination |  | hypocotyl length | 0.736 cm |
| abamectin | Nuclear receptor subfamily 1 group I member 3 (Homo sapiens, UniProt Q14994) | receptor activity, inhibitor | cells |  |  | IC50 | 31.4 ± 19 µM |
| nonaarginine | PorA peptide pore | peptide binding, planar bilayer single-channel recording |  | pH 7.4, +25 mV, trans side, 150 mM KCl |  | Kd | 3.09 ± 0.3 µM |
| NQVANAQ | Escherichia coli 23S rRNA H69, unmodified | binding, ESI-MS titration | peptide, 50% isopropanol, 150 mM ammonium acetate | added: RNA 2.7 µM |  | Kd | > 120 µM |
| CRQLRKGKFFSEGGSGGTSFEQFWAWLWP | Serine/threonine-protein kinase PAK 4 (PAK4, Homo sapiens, UniProt O96013) | degrader, Western blot, item: PAK4 protein | peptide, 786-O cells | concentration not given |  | DC50 | ~0.2 µM |
| hexaarginine | PorA peptide pore | peptide binding, planar bilayer single-channel recording |  | pH 7.4, +20 mV, trans side, 150 mM KCl |  | Kd | 19.5 ± 2 µM |
| bleomycin sulfate | CRISPR-associated endonuclease Cas9/Csn1 (cas9, Streptococcus pyogenes serotype M1, UniProt Q99ZW2) | enzyme activity, inhibitor | Streptococcus pyogenes |  |  | IC50 | 2 to 5 µM |
| abamectin | Nuclear receptor subfamily 5 group A member 2 (NR5A2, Homo sapiens, UniProt O00482) | binding, differential scanning fluorimetry |  | human protein |  | IC50 | 9.4 ± 1.4 µM |
| dynorphin A (1-17) | opioid receptor mouse | binding | CD-1 mouse brain |  |  | Ki | 0.0055 ± 0.0026 µM |
| insulin human |  | item: GOT2 mRNA | EcoHIV-infected mouse, brain | i.p., dose not given | baseline: PBS | fold change | 1.05 |
| Ivermectin | Oxysterols receptor LXR-alpha (NR1H3, Homo sapiens, UniProt Q13133) | coactivator recruitment, antagonist, TR-FRET |  |  |  | IC50 | 3.57 ± 2.67 µM |

A few entries again:
| Substance | target or system | test | system | setting | how to read | quantity | result |
| --- | --- | --- | --- | --- | --- | --- | --- |
| CRQLRKGKFFSEGGSGGTSFEQFWAWLWP | Serine/threonine-protein kinase PAK 4 (PAK4, Homo sapiens, UniProt O96013) | degrader, Western blot, item: PAK4 protein | peptide, 786-O cells | concentration not given |  | DC50 | ~0.2 µM |
